Published values from different studies.
Compare with care: the assays were run in different laboratories. Numbers after ± are the reported error.

SMILES | assay | test system | conditions | scale | endpoint | result
NS(=O)(=O)c1ccc(N2N=C(C(F)(F)F)CC2c2ccc(F)cc2F)cc1 (stereo not drawn) | – | Beagle dog, male, arthritis model, plasma | oral, 4 mg/kg single dose, day 7 | – | plasma concentration | 59 ± 41 ng/mL
C=C(c1ccc(C(=O)O)c(F)c1)c1cc2c(cc1C)C(C)(C)C=CC2(C)C | – | Sprague-Dawley rat, male, plasma | oral, 100 mg/kg, 9 h, sesame oil vehicle | – | HDL level | 59 ± 7 mg/dL
CC(C)C[C@@H](NC(=O)[C@H](NC(=O)[C@H]1CCCN1)[C@H](C)O)C(=O)N[C@H](Cc1c[nH]cn1)C(=O)N[C@@H](C(=O)N[C@H](Cc1c[nH]cn1)C(=O)N[C@H](CC(N)=O)C(=O)N[C@H](CCCNC(=N)N)C(=O)N[C@H](CCCNC(=N)N)C(=O)N[C@H](CCCNC(=N)N)C(=O)N[C@H](CCCNC(=N)N)C(=O)N[C@H](CCCNC(=N)N)C(N)=O)[C@H](C)O | – | beagle dog, plasma | intravenous, 3 mg/kg, single dose | – | AUC(0-inf) | 28600 ng·h/mL
C[C@H](NC(=O)[C@H](CCCNC(=N)N)N(C)C(=O)[C@@H]1CCCN1C(=O)[C@H](CCCNC(=N)N)NC(=O)CNC(=O)c1ccc2c(c1)C1(OC2=O)c2ccc(O)cc2Oc2cc(O)ccc21)C(=O)N[C@@H](Cc1ccccc1)C(=O)N[C@H](C(=O)N[C@@H](Cc1ccccc1)C(=O)N(C)CC(=O)N[C@@H](CCC(=O)O)C(=O)NCC(N)=O)[C@@H](C)O | – | HeLa cytosolic lysate | 1 µM, 37 °C | – | t1/2 | 1.4 h
N=C(N)NCCC[C@@H]1NC(=O)[C@H](Cc2c[nH]c3ccccc23)NC(=O)[C@@H](CC2CCCCC2)NC(=O)[C@@H]2CCCN2C(=O)[C@@H](NC(=O)CCc2ccccc2)CCCNC1=O | – | C57BL/6J mice, brain | oral, 1 mg/kg, two-compartment model | – | elimination rate constant | 6.94e-05 s⁻¹
N=C(N)NCCC[C@@H]1NC(=O)[C@H](CCCCNC(=O)CC[C@H](NC(=O)CN2CCN(CC(=O)O)CCN(CC(=O)O)CCN(CC(=O)O)CC2)C(=O)NCCCC[C@@H]2NC(=O)[C@@H](Cc3ccccc3)NC(=O)[C@H](CC(=O)O)NC(=O)CNC(=O)[C@H](CCCNC(=N)N)NC2=O)NC(=O)[C@@H](Cc2ccccc2)NC(=O)[C@H](CC(=O)O)NC(=O)CNC1=O [gallium-68 labelled] | – | female BALB/c nude mice, SK-RC-52 xenograft, tumour | 0.5 µg, 2 h post injection, together with: excess unlabelled DOTA-E-[c(RGDfK)]2 50 µg | – | radioactivity concentration | decreased
CC(C)(O)c1ncc([S@](N)(=O)=NC(=O)Nc2c3c(cc4c2CCC4)CCC3)s1 | – | healthy humans | oral, dose not given, 14 days, study all active | – | number of TEAEs | 119
CCCC[C@H](NC(=O)CNC(=O)CNC(=O)CN1CCN(CC(=O)O)CCN(CC(=O)O)CCN(CC(=O)O)CC1)C(=O)N[C@H]1CC(=O)NCCCC[C@@H](C(N)=O)NC(=O)[C@H](Cc2c[nH]c3ccccc23)NC(=O)[C@H](CCCNC(=N)N)NC(=O)[C@@H](Cc2ccccc2)NC(=O)[C@H](Cc2c[nH]cn2)NC1=O [copper-64 labelled] | – | female C57 mouse, B16/F1 melanoma | intravenous, 0.037 MBq, 24 h | baseline: tumour over heart | uptake ratio | 2.67
O=C(NCCN1CCOCC1)c1cc2c3ccccc3n3c(=O)ccc(n1)c23 | – | water | 2 h | baseline: compound over CO | water solubility ratio | ~6 fold
CC(C)c1cnc(-c2cc(Cl)ccc2F)cc1Nc1ccncc1C(=O)NC(CO)CO | – | human patients | oral, dose not given, worst grade 4 | – | patients with any TRAE | 0%
Cc1nc(C)c(C=[N+]([O-])C(C)(C)C)nc1C | – | healthy human, both sexes, serum | oral, 1200 mg twice daily, 7 days | – | Vss/F | 57.7 L
C[C@H](CN(C)Cc1ccccc1)NC(=O)c1ccc(-c2noc(C(F)(F)[18F])n2)cc1 | PET | Sprague-Dawley rat, female, hippocampus and cerebellum | intravenous, 30 min | baseline: hippocampus SUV over cerebellum SUV | hippocampus-to-cerebellum ratio | 1.76 ± 0.26
NC[C@@H](C(=O)Nc1ccc(-c2cn[nH]c2)cc1)c1ccccc1 | OECD 405, measured: Iris | New Zealand White rabbit | topical, 0.1 %, 25 h, day 2 | direction not given | ocular irritation score | 0
CC/C=C\C/C=C\C/C=C\C/C=C\C/C=C\CCCCOC(CC)C(=O)O (stereo not drawn) | – | Wistar rat, male, portal vein blood, mesenteric lymph | oral, 100 mg/kg | baseline: portal vein over mesenteric lymph | AUC(0-24 h) ratio | ~2 fold
Cc1cc2c(NC(=O)N[C@@H]3CC(C)(C)Oc4cc(C(F)(F)F)ccc43)c(C)ccc2cn1 | telemetry | male Sprague-Dawley rats | oral, 100 µmol/kg | baseline: vehicle | maximum body temperature increase | 1.4 °C

Some of these lines once more:
SMILES | assay | test system | conditions | scale | endpoint | result
CCCC[C@H](NC(=O)CNC(=O)CNC(=O)CN1CCN(CC(=O)O)CCN(CC(=O)O)CCN(CC(=O)O)CC1)C(=O)N[C@H]1CC(=O)NCCCC[C@@H](C(N)=O)NC(=O)[C@H](Cc2c[nH]c3ccccc23)NC(=O)[C@H](CCCNC(=N)N)NC(=O)[C@@H](Cc2ccccc2)NC(=O)[C@H](Cc2c[nH]cn2)NC1=O [copper-64 labelled] | – | female C57 mouse, B16/F1 melanoma | intravenous, 0.037 MBq, 24 h | baseline: tumour over heart | uptake ratio | 2.67
CC(C)c1cnc(-c2cc(Cl)ccc2F)cc1Nc1ccncc1C(=O)NC(CO)CO | – | human patients | oral, dose not given, worst grade 4 | – | patients with any TRAE | 0%
